Assay results from different studies.
A part holds a random share of what one study measured. Substitutions count along the parent as printed.

Block 1
Target: ABI1, truncated, D143A, DHFR fusion (Arabidopsis thaliana)
Technique: DHFR PCA, deep sequencing
Matrix: yeast
Setting: methotrexate growth selection, single substitutions
Added: (+)-ABA 4.8 µM
Reference: wild-type fitted maximum
Direction: higher = stronger binding
Starting sequence: PYL1, truncated, DHFR fusion (Arabidopsis thaliana); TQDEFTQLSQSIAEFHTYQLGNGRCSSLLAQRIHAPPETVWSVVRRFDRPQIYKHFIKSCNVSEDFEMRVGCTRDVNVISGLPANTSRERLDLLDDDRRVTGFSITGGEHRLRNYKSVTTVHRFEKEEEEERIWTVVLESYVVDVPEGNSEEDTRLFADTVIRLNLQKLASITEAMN
| Variant | relative binding score |
| --- | --- |
| P83H | 3.26% |
| I162H | 0.965% |
| A84G | 67.3% |
| E147R | 47.2% |
| L112F | 48.6% |
| Q19T | 75.8% |
| E67Y | 53.6% |
| S80K | 5.39% |
| M68G | 39.9% |
| V145C | 48.7% |
| P146W | -1.86% |

Block 2
Target: CCND1, cyclin fold, Cln2 fusion (human)
Technique: yeast growth competition, sequencing
Matrix: yeast
Setting: weak parent motif
Reference: not given
Direction: higher = stronger binding
Starting sequence: SAMHD1 docking peptide (human); ASKSRVQLFKDDP
| Variant | normalised enrichment score |
| --- | --- |
| S4L | -0.000761 |
| V6M | 0.193 |
| K3E | 1.03 |
| V6R | 1.03 |
| D12R | 0.0891 |
| V6Y | 0.267 |
| Q7K | 0.75 |
| K3R | 0.523 |
| S4P | 0.0768 |
| S4Q | 0.0333 |
| R5W | 0.276 |
| K10H | 0.342 |
| D11H | 0.0108 |
| R5I | 1.39 |

Block 3
Target: CEBPD, bZIP domain (human)
Technique: DHFR protein complementation
Matrix: yeast
Setting: single substitutions, most at no-binding floor
Reference: wild-type JUN-FOS pair
Direction: higher = stronger binding
Starting sequence: JUN, bZIP domain (human); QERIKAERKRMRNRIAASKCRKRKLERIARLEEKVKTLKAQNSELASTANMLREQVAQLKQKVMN; partner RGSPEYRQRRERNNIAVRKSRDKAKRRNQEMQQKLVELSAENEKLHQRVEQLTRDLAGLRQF
| Variant | binding fitness |
| --- | --- |
| A46Y | -1.48 natural log |
| T37H | -1.35 natural log |
| V35M | -1.45 natural log |
| L31N | -1.52 natural log |
| L52D | -1.55 natural log |
| E32K | -1.43 natural log |
| E54W | -1.4 natural log |
| V56G | -1.5 natural log |
| K36P | -1.51 natural log |
| R30G | -1.26 natural log |
| A49H | -1.41 natural log |
| E32Y | -1.35 natural log |
| T37D | -1.32 natural log |
| E54T | -1.36 natural log |
| A46M | -1.28 natural log |
| R53Q | -1.19 natural log |
| L38I | -1.18 natural log |
| V35S | -1.55 natural log |

Block 4
Target: Centromere-binding protein 1, full length, N-terminal tag (CBF1, Saccharomyces cerevisiae, UniProt P17106, residues 1-351)
Sequence of UniProt P17106 (whole entry, looked up): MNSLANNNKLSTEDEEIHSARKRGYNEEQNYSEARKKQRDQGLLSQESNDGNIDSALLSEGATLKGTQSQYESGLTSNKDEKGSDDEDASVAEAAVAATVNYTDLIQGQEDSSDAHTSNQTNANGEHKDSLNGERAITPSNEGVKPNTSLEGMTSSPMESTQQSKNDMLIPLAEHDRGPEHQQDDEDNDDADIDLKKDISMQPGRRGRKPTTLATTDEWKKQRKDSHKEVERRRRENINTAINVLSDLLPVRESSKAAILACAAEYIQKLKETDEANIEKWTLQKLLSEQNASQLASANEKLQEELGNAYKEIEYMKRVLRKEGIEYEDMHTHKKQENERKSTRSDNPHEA
Technique: protein-binding microarray
Form: double-stranded DNA, one strand shown
Matrix: in vitro
Concentration: 0.8 µM
Setting: whole 60-bp probe, no competitor
Direction: higher = stronger binding
Shared flanks, not repeated: … GTCTTGATTCGCTTGACGCTGCTG
| Strand | fluorescence intensity [a.u.] |
| --- | --- |
| CTATATAATGCAAATTACGTGAGCCGCTCTTGTTTC | 517 |
| CTAAAATCTATGGGTCATGTGCTCTATAATTCCTTC | 4900 |
| GAAATGTTTATGTGTCACCTCTTGCTTGCGTCTTAG | 542 |
| CTAAAAAGTTCCCCCCTCGTGGCCAGCGACGTTTTC | 491 |
| TGTACGAAGCTATATAACGTGTGTATAGTAGTTAGG | 577 |
| CCTAACTACTATACTGGTGATTTATAGCTTCGTACA | 531 |
| GAACAAGCGAAACACCACGCAAACACAAGTTGTTAG | 514 |
| TGTACGAAGCTATGTCACGTGGATATAGTAGTTAGG | 13200 |
| CCTAACTACTATATTCTCGTGGTATAGCTTCGTACA | 578 |
| GAAAAGCTATTCAACCACGTGAAGATAGCAGGGTAG | 3580 |
| GAAACTTTTCAAACTCACCTGTTAGATGTCTCTTAG | 522 |
| GAATTCGCTCTTTATCACCACGCTTTTCCTCTCTAG | 535 |
| CTACCTACGCTCTTTCACGTTTGTGCTGATAGATTC | 562 |
| GAATTATCAATAAATCACCTGCACACGCTGTCCTAG | 1040 |
| CTAACGGTGTTAAATGGTGACGCAAGTTATGAGTTC | 517 |
| GAACCAAGCCATGGTCATGTGATTTCCATGTGCTAG | 9610 |
| CTACATTCAATTCCTCACCTGGTGCGCACTTCCTTC | 558 |
| GAATAATAAATACGTGACACAGCGTATAAGAAATAG | 1080 |
| TGTACGAAGCTATACATCGTGATTATAGTAGTTAGG | 713 |
| CTAAAAATTGACCTGCACATGGAGAAAGCGTAATTC | 572 |
| CTACAAGCGAGAAGTCACGCTTATAACGCAAGTTTC | 869 |
| GAAAACGAGATTTGCTAGGTGATGACGACGGTGTAG | 534 |
| GAAAAGTGTGGCCTAGTCGTGGGATATGGTGAGTAG | 516 |
| GAATAAGAAGGTGATCAGGTAGTTCGTCATTCGTAG | 542 |
| CTAGACTACCAGTAACATCAGAATAACCATAGATTC | 530 |

Block 5
Target: Sal-like protein 4, full length isoform A (SALL4, Homo sapiens, UniProt Q9UJQ4, residues 1-1053)
Sequence of UniProt Q9UJQ4 (whole entry, looked up): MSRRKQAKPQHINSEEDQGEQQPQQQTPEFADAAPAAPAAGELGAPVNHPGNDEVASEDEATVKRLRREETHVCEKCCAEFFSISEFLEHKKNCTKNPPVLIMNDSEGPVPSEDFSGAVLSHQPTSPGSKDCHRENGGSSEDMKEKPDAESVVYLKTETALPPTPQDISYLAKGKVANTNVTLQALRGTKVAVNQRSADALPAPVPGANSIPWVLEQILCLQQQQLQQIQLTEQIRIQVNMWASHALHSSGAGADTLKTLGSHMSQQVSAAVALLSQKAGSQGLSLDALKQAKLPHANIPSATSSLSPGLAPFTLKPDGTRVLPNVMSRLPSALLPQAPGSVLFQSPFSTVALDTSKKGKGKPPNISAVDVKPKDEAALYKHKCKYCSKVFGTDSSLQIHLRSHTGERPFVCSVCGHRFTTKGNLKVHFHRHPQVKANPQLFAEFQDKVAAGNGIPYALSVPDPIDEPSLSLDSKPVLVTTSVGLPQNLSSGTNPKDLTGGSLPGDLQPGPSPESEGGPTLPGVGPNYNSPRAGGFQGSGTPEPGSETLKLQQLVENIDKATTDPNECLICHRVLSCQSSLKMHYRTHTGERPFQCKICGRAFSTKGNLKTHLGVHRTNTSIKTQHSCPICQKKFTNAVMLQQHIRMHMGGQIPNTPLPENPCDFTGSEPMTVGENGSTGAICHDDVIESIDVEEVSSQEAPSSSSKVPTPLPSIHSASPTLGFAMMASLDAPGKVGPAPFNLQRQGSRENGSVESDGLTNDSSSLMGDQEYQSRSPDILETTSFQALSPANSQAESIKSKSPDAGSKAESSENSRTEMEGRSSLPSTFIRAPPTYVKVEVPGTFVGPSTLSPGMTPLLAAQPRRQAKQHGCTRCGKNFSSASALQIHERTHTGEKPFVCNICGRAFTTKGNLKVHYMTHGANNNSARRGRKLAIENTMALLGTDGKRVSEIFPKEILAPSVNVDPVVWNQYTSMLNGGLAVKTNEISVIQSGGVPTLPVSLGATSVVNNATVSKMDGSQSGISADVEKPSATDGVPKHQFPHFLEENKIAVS
Technique: universal PBM
Form: double-stranded DNA, one strand shown
Matrix: in vitro
Concentration: 600 nM
Setting: 8-mer, flanks averaged, mean of replicates
Direction: higher = stronger binding
| Strand | E-score |
| --- | --- |
| AGATGAAA | 0.186 |
| GACTGCGA | -0.129 |
| AACTGACA | -0.0188 |
| CTCAACAG | 0.083 |
| CTCGATTA | 0.14 |
| CGCCTATC | -0.0799 |
| CCGATGTC | -0.173 |
| CGCATGTA | -0.0965 |
| CGAGCCTC | -0.172 |
| TGCCCGCA | -0.227 |
| CCAAGGAA | -0.0432 |
| CACCGATG | -0.0749 |
| ACGGAAGG | -0.235 |
| CGGGGTAG | -0.281 |
| AACGAAGC | -0.198 |
| CCGCCGGC | -0.216 |
| GTCCGTTA | -0.0707 |
| GTCGAATA | 0.21 |

Block 6
Target: Prothrombin, mature alpha-thrombin (F2, Homo sapiens, UniProt P00734)
Technique: aptamer microarray, sandwich
Form: DNA with 2'F-ANA
Matrix: in vitro
Concentration: 200 nM
Setting: whole 15-mer aptamer, many near background
Added: Cy3 exosite-II aptamer, 400 nM
Direction: higher = stronger binding
Strand: GGTTGGTGTGGTTGG
| Modification | mean fluorescence intensity [a.u.] |
| --- | --- |
| 2'F-ANA at 2 4 6 8 9 11 14 15 | 85.2 |
| 2'F-ANA at 4 7 8 10 11 12 13 | 87.8 |
| 2'F-ANA at 2 4 8 12 13 | 503 |
| 2'F-ANA at 2 3 5 6 8 9 11 15 | 76.9 |
| 2'F-ANA at 2 3 4 6 7 9 12 13 15 | 437 |
| 2'F-ANA at 5 6 12 14 15 | 98.9 |
| 2'F-ANA at 2 4 5 7 11 15 | 56.7 |
| 2'F-ANA at 1 2 4 6 8 12 | 320 |
| 2'F-ANA at 3 6 7 10 11 12 13 14 15 | 452 |
| 2'F-ANA at 3 5 6 9 13 14 | 64.8 |
| 2'F-ANA at 5 9 10 11 13 14 15 | 55.7 |
| 2'F-ANA at 3 4 5 7 8 9 10 11 15 | 84.8 |
| 2'F-ANA at 2 3 5 6 7 9 11 12 14 | 52.9 |
| 2'F-ANA at 3 6 9 14 15 | 509 |
| 2'F-ANA at 3 4 5 8 11 12 14 15 | 56.7 |
| 2'F-ANA at 1 4 5 7 12 13 15 | 70.1 |
| 2'F-ANA at 2 3 4 5 9 12 14 15 | 52.5 |
| 2'F-ANA at 1 2 3 5 7 8 11 13 | 53.8 |
| 2'F-ANA at 1 2 4 5 7 8 10 14 | 53.1 |
| 2'F-ANA at 1 2 7 9 10 11 13 14 | 45.9 |
| 2'F-ANA at 1 2 4 7 8 10 12 13 15 | 59.7 |
| 2'F-ANA at 2 4 5 6 7 8 9 11 15 | 63.8 |
| 2'F-ANA at 2 4 8 9 11 13 | 201 |
| 2'F-ANA at 1 3 4 5 6 11 13 15 | 49.2 |
| 2'F-ANA at 3 4 5 6 7 9 10 11 12 15 | 56.1 |
